Published values gathered from unrelated publications.
Lines come from different studies, so protocols differ. Numbers after ± are the reported error.
Target: Delta-type opioid receptor (Oprd1, Mus musculus, UniProt P32300)

For `C[n+]1ccc(C(=O)NC2CCC3(O)C4Cc5ccc(O)c6c5C3(CC[N+]4(C)CC3CC3)C2O6)cc1` (centres unmarked), the Ki was 9860 ± 1140 nM (binding, radioligand displacement; CHO cell membranes; added: [3H]diprenorphine).
With `Cc1cc(O)cc(C)c1C[C@H](N)C(=O)N[C@H](C)C(=O)N[C@@H](Cc1ccccc1)C(=O)N[C@@H](Cc1ccccc1)C(N)=O` the Ki was 2 nM (ligand displacement, radioligand; cell membranes).
`CC(C)[C@H](NC(=O)[C@@H]1CCNC(=O)NCCC[C@@H](NC(=O)[C@@H](N)Cc2ccc(O)cc2)C(=O)NCC(=O)N[C@@H](Cc2ccccc2)C(=O)N1)C(=O)N[C@H](C(=O)NCC(=O)NCCNC(N)=O)C(C)C` gave an IC50 of 20.5 ± 4 nM (contraction inhibition, agonist; mouse, isolated vas deferens).
The Kb of `Cc1cc(O)cc(C)c1C[C@H](C)C(=O)N[C@@H]1CSSC[C@@H](C(N)=O)N(C)C(=O)[C@H](Cc2ccccc2)N(C)C(=O)CNC1=O` is reported as 277 ± 40 nM (antagonist; mouse vas deferens; added: DPDPE).
With `CC(C)[C@H](NC(=O)[C@@H]1CCCNC(=O)NCCCC[C@@H](NC(=O)[C@@H](N)Cc2ccc(O)cc2)C(=O)NCC(=O)N[C@@H](Cc2ccccc2)C(=O)N1)C(=O)N[C@H](C(=O)NCC(=O)NCCNC(N)=O)C(C)C` the IC50 was 4.18 nM (contraction inhibition, agonist; mouse, isolated vas deferens).
With `N[C@@H](Cc1ccc(O)cc1)C(=O)N1Cc2ccccc2C[C@H]1C(=O)N[C@@H](Cc1ccccc1)C(=O)N[C@@H](Cc1ccc(N=C=S)cc1)C(=O)N[C@@H](CC(=O)O)C(=O)NCCOCCOCCNC(=O)CCCC[C@@H]1SC[C@@H]2NC(=O)N[C@@H]21` the IC50 was 40.5 nM (ligand displacement, radioligand).
With `Cc1cc(C(=O)NCCc2ccc(-c3ccccc3)cc2)cc(C)c1C[C@H](N)C(=O)N1Cc2ccccc2C[C@H]1C(=O)O` the Kb was 1.76 ± 0.3 nM (antagonist; mouse vas deferens).
`Cc1cc(O)c(I)c(C)c1C[C@H](N)C(=O)N[C@H](C)C(=O)N[C@@H](Cc1ccccc1)C(=O)N[C@@H](Cc1ccccc1)C(N)=O` has a Ki of 58 nM (ligand displacement, radioligand; cell membranes).
With `CC(C)[C@H](NC(=O)[C@@H]1CNC(=O)NCCC[C@@H](NC(=O)[C@@H](N)Cc2ccc(O)cc2)C(=O)NCC(=O)N[C@@H](Cc2ccccc2)C(=O)N1)C(=O)N[C@H](C(=O)NCC(=O)NCCNC(N)=O)C(C)C` the IC50 was 18.5 ± 2 nM (contraction inhibition, agonist; mouse, isolated vas deferens).
For `Nc1ccc(C[C@H](NC(=O)[C@H](Cc2ccccc2)NC(=O)[C@@H]2Cc3ccccc3CN2C(=O)[C@@H](N)Cc2ccc(O)cc2)C(=O)N[C@@H](CC(=O)O)C(=O)NCCOCCOCCNC(=O)CCCC[C@@H]2SC[C@@H]3NC(=O)N[C@@H]32)cc1`, the IC50 was 33.3 nM (ligand displacement, radioligand).
With `NC(=O)c1ccc(C[C@H](N)C(=O)N2Cc3ccccc3C[C@H]2C(=O)N[C@@H](Cc2ccccc2)C(=O)N[C@@H](Cc2ccccc2)C(=O)O)cc1` the Kb was 18.3 ± 2.1 nM (antagonist).

Repeated from above:
With `N[C@@H](Cc1ccc(O)cc1)C(=O)N1Cc2ccccc2C[C@H]1C(=O)N[C@@H](Cc1ccccc1)C(=O)N[C@@H](Cc1ccc(N=C=S)cc1)C(=O)N[C@@H](CC(=O)O)C(=O)NCCOCCOCCNC(=O)CCCC[C@@H]1SC[C@@H]2NC(=O)N[C@@H]21` the IC50 was 40.5 nM (ligand displacement, radioligand).
